# Published values of several laboratories.
# Parts stem from different laboratories: compare values within a part only. Substitutions count along the parent as printed.

# Block 1
# Target: ABI1, truncated, D143A, DHFR fusion (Arabidopsis thaliana)
# Method: DHFR PCA, deep sequencing
# Matrix: yeast
# Notes: methotrexate growth selection, single substitutions
# Together with: (+)-ABA 2500 µM
# Baseline: wild-type fitted maximum
# Reading: higher = stronger binding
# Starting sequence: PYL1, truncated, DHFR fusion (Arabidopsis thaliana); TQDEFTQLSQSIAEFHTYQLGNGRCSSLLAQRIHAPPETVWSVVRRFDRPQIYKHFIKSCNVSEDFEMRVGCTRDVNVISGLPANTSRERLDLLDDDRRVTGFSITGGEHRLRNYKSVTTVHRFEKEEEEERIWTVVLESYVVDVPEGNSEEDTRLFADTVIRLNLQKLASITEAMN; partner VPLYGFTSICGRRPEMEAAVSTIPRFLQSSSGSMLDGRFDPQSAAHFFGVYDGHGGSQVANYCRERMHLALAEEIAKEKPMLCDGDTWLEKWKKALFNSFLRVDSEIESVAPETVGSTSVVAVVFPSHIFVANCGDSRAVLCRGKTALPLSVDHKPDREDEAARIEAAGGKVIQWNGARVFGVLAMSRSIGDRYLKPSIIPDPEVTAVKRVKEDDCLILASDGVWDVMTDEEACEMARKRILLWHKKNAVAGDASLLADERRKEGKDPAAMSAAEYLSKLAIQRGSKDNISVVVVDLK
Change,relative binding score [%]
T6N,102
L28F,91.5
E125S,100
R69H,98.7
R99I,63.4
S27Y,84.3
D97F,104
S59R,96
D92C,84.8
V136C,103
V43S,83.4
T86W,97.3
H34F,94.8
L138H,80.3
S26Y,93.2
L112Q,4.39
E147M,95.1
T6I,88
T154V,96.9
V161I,96.3

# Block 2
# Target: Sal-like protein 4, full length isoform A (SALL4, Homo sapiens, UniProt Q9UJQ4, residues 1-1053)
# Chain of UniProt Q9UJQ4 (whole entry, looked up): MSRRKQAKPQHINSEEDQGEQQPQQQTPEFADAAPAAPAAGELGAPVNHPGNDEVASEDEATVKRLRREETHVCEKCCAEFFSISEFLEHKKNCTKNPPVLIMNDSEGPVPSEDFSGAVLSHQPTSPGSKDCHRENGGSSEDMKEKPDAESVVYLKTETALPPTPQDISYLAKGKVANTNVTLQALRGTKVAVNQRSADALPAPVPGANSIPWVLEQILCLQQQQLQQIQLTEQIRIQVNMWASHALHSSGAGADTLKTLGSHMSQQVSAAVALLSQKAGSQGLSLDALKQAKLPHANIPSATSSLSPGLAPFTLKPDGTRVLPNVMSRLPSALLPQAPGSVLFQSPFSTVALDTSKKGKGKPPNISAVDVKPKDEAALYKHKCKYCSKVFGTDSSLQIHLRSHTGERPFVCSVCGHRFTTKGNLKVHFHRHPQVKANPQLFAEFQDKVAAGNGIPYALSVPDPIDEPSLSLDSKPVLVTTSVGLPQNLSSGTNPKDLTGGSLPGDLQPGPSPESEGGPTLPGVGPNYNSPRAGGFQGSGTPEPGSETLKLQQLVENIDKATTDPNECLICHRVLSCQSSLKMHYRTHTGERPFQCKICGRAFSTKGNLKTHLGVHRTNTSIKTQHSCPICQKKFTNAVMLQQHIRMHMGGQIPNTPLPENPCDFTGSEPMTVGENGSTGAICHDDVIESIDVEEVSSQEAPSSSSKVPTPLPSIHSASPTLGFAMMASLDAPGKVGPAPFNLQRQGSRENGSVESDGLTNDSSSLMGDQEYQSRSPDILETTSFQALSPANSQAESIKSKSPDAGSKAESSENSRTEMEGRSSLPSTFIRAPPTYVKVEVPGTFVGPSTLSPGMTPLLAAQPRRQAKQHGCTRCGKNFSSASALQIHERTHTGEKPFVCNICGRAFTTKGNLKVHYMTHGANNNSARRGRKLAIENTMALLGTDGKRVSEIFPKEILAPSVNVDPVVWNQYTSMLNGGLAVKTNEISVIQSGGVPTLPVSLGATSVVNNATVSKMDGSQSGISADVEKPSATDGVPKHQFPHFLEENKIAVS
# Method: universal PBM
# Molecule type: double-stranded DNA, one strand shown
# Matrix: in vitro
# Tested at: 600 nM
# Notes: 8-mer, flanks averaged, mean of replicates
# Reading: higher = stronger binding
Oligonucleotide,E-score
CTAGATTC,-0.0451
CATCTGGG,-0.19
ACCACGAA,0.00584
GTTATAGA,0.318
AAATCGGC,-0.0828
CGCCCGTC,-0.219
AACTTAGG,0.0238
CAAGACAG,-0.0938
GCGACCGA,-0.23
GAAGTTGA,-0.125
GCCTTTTA,-0.104
CACCAATC,-0.0254
CGGCGTAG,-0.232
ATAGGTAA,0.237
AAAACTAC,0.182
CTAGAGTC,-0.132
AGTGCTCG,-0.2
GTACGAGA,0.13
ATGGTCAA,0.164
CTACAATC,0.2
CTGTTATC,0.175
AAATTCTT,0.191
CTGCGAGC,-0.113
CGGGGATC,-0.352
GTGATTCA,0.0899

# Block 3
# Target: TAR DNA-binding protein 43, full length, His tag (TARDBP, Homo sapiens, UniProt Q13148, residues 1-414)
# Method: RNA Bind-n-Seq
# Molecule type: RNA
# Matrix: in vitro
# Tested at: 20 nM
# Notes: 6-mer, flanks averaged, single round
# Together with: 150 mM KCl
# Baseline: input library
# Reading: higher = stronger binding
Oligonucleotide,6-mer enrichment (R)
GCUCAA,0.673
UCGUGU,0.785
ACUUAU,0.591
UAACAU,0.626
GCAGUC,0.829
UGUUAC,0.641
UUACCC,0.618
UCGGCU,0.767
UUUGCG,0.872
GACGGA,1.55
UCAUUA,0.545
AGGUUA,0.72
GCUUGC,0.808
GACAGU,0.892
CUCAAU,0.581
CUCCGC,0.62
GGUGGG,9.02
GCGUCG,1.41
GACAUA,0.681

# Block 4
# Target: Interferon regulatory factor 7, full length, phosphomimetic (IRF7, Homo sapiens, UniProt Q92985, residues 1-503, S471D/S472D/S475D/S476D/S477D/S483D/S484D/S487D)
# Method: protein-binding microarray
# Molecule type: double-stranded DNA, one strand shown
# Matrix: in vitro
# Tested at: 2200 nM top
# Notes: 60-bp whole probe
# Together with: salmon DNA 0.4 mg/ml
# Baseline: random background probes
# Reading: higher = stronger binding
# Shared flanks, not repeated: GCCTAGCAC … GTCTTGATTCGCTTGACGCTGCTG
# Residues (chain): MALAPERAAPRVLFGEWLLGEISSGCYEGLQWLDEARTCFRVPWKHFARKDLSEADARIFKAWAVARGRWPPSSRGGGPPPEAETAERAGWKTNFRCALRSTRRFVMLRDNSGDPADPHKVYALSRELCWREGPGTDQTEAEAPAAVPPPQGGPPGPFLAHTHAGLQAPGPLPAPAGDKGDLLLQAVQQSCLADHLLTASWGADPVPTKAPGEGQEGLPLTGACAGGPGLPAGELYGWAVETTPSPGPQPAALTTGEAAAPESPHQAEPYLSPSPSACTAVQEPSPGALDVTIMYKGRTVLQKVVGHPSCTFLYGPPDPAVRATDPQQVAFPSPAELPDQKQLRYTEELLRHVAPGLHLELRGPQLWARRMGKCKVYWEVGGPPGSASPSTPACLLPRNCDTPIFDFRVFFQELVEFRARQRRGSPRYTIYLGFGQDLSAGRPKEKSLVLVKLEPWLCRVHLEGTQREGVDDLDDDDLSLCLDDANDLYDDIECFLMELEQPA
Oligonucleotide,fitted relative affinity [z-score]
GACGGTATCGGGCATCGGGACGTGCTA,-0.607
TTAGATATCGCGACTGGATTAGTGCTA,0.0365
TTTTTTTTTTTTTTACTTCGGTGCTAG,2.17
GACGGACTGAGTTTCGGGACGTGCTAG,2.08
TCATAATTCTCTTTTCAACTGTGCTAG,1.12
GACGGGTTCGGACTGGGGACGTGCTAG,-0.173
GACGAAATCGGGACTGGAGACGTGCTA,-0.351
CTAGGTTTCGACTTTCGGTTAGTGCTA,10.5
ATGGGTATGGCCTATTTATATGTGCTA,-0.178
TTAGGACTGCTTTTACTTTAGTGCTAG,0.691
CTAAAAATCCCATTAAATTTGTGCTAG,-0.544
TTAGTACTGGACACTGGGTTAGTGCTA,-0.0177
GACGATATCGGGTATCGAGGCGTGCTA,-0.0884
GACGGACTGGACTTTGGGGACGTGCTA,-0.838
TCAGTTACGGAATTTCCCACTGTGCTA,1.34
GATGATTTCAGACTGGAGACGTGCTAG,0.252
GACGATCCCAGTCTCGAGACGTGCTAG,0.565
TTAGATTTCACTTTCGATTAGTGCTAG,10.9
TTAGGTCTCGGTACCGGTTAGTGCTAG,0.122

# Block 5
# Target: Ras GTPase-activating protein-binding protein 1, full length (G3BP1, Homo sapiens, UniProt Q13283)
# Chain of UniProt Q13283 (whole entry, looked up): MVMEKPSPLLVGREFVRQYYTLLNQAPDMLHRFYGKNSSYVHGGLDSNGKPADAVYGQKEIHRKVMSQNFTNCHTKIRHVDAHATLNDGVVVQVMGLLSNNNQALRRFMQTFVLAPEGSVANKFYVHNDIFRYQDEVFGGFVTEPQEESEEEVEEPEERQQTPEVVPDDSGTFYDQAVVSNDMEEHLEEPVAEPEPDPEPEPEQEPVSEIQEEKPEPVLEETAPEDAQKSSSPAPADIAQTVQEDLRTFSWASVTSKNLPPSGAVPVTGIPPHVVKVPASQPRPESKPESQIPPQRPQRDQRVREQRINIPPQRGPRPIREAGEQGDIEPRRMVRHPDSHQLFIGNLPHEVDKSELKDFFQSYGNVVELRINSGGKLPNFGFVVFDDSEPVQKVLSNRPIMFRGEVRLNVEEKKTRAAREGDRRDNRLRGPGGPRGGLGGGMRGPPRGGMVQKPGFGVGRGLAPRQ
# Method: RNA Bind-n-Seq
# Molecule type: RNA
# Matrix: in vitro
# Tested at: 200 nM
# Notes: whole 134-nt RNA, ends assumed
# Together with: 150 mM LiCl
# Baseline: input library
# Reading: higher = stronger binding
# Each molecule: 7-deaza-guanosine replaces G
# Shared flanks, not repeated: GGGAGUUCUACAGUCCGACGAUC … UGGAAUUCUCGGGUGUCAAGG
Oligonucleotide,log2 enrichment
UGGAGCUGAAGAGCCAAGAGGCUCCGAGUCUGCAGCAGCAGCCAGACCAGUACCUGGAGCCCCAGUCCCACAAGGAGCUUGGAUGUGCGG,-0.966
UGAUGAUAGUAGCAGAGAAGAUGAACAUACACAUACUAACAGUGUCACGAACUCCAGUAGUAUUGUGGACCUGCCCGUUCACCAACUCUC,-0.0239
UCAAGUCCUGUGCUACACAUCGUAUGUACCGAAUCGGAAGGGGAAGGGGAAGGGAAAGUAUUAUGUUACGCCGUUCGGAUCUGCACUUCC,-0.287
UCCUGUGCUACACAUCGUAUGUACCGAAUCGGGAAAAAAAGGGUUUUUUUGGGUUUGGGAAAGUAUUAUGUUACGCCGUUCGGAUCUGCA,-1.87
CACAGACAACACGAACCCACACAGACACAGAGGGAAGGGGUUGGGAUGGGGACAGGGUGCACAGCAGGGCGGGGUAGGACCCCAGCCCCU,0.391
CUCAAGUCCUGUGCUACACAUCGUAUGUACCGAAUCGGGUUGGGUUGGGUUGGGAAAGUAUUAUGUUACGCCGUUCGGAUCUGCACUUCC,0.247
UCAAGUCCUGUGCUACACAUCGUAUGUACCGAAUCGGAGGAAAGGUUUUUUUGGAAAGUAUUAUGUUACGCCGUUCGGAUCUGCACUUCC,0.0204
AGUCCUGUGCUACACAUCGUAUGUACCGAAUCGGGUUUUUGGGGUUUUUGGUUUUUGGAAAGUAUUAUGUUACGCCGUUCGGAUCUGCAC,-0.37
